Assay results of several laboratories.
Protocols differ between the studies behind these lines.

Structure (SMILES) = CNC(=O)c1cc(Oc2ccc(NC(=O)Nc3cc(C(C)(C)C)nn3-c3ccc4ncccc4c3)c(F)c2)ccn1; system = patients; conditions = oral, dose not given, cycles 1 and 2, Medium Cmax subgroup; quantity = patients with nervous system disorders; value = 47%
Structure (SMILES) = C=CC(=O)NC1CCN(c2ncc3ncnc(Nc4ccc(Oc5ccc6c(c5)ncn6C)c(C)c4)c3n2)CC1; system = male patients; conditions = oral, dose not given, on-treatment adverse events; quantity = patients with Pruritus; value = 0%
Structure (SMILES) = COc1cc(Nc2ncc3c(n2)-c2ccc(Cl)cc2C(c2c(F)cccc2OC)=NC3)ccc1C(=O)O; test = refers to: Headache, grade 1; system = cancer patients, phase 1/2; conditions = oral, dose not given, added: pembrolizumab; quantity = patients with adverse event; value = 13%
Structure (SMILES) = COc1ccc([C@@H](O)c2cc(-c3ncnc4cc(N5CCOCC5)ccc34)c(F)cc2Cl)nn1; test = refers to: Diarrhea; system = locally advanced rectal cancer patients; conditions = dose not given, all dose groups, added: capecitabine plus radiotherapy; quantity = patients with TEAE; value = 79%
Structure (SMILES) = Cc1cc(NC2CCN(C(=O)OC3CCN(C(=O)/C=C/CN(C)C)C3)CC2)n2ncc(C(C)C)c2n1 (stereo not shown); test = Phase I dose escalation CTCAE v4.0, refers to: Dyspnea; system = patients with advanced solid tumours; conditions = dose not given, all dose schedules any grade; quantity = patients with adverse event; value = 15%
Structure (SMILES) = CCOc1c([C@H](C)n2nc(C)c3c(N)ncnc32)cc(Cl)c(F)c1[C@@H]1CNC(=O)C1; test = refers to: QTcF above 500 ms; system = previously treated B-cell malignancy; conditions = oral, 15 mg once daily, baseline QTcF ≤450 ms; quantity = patients; value = 0%
Structure (SMILES) = C[C@@H](Nc1cc(F)cc(F)c1)c1cc(C(=O)N(C)C)cc2c(=O)cc(N3CCOCC3)oc12; test = refers to: Paresthesia; system = advanced solid tumour patients; conditions = oral, dose not given, dose finding; quantity = patients discontinuing for AE; value = 0%
Structure (SMILES) = NC(=O)N1c2ccccc2C=Cc2ccccc21; system = male patients; conditions = oral, dose not given, treatment-related adverse events; quantity = patients with Constipation; value = 20%
Structure (SMILES) = CNC(=O)c1ccc(-c2cnc3ncc(Cc4ccc5ncccc5c4)n3n2)cc1F; test = refers to: Dizziness, all grades; system = cancer patients; conditions = oral, 600 mg twice daily, other expansion cohort, any causality; quantity = patients with adverse event; value = 11%
Structure (SMILES) = Cc1cc(-c2nnc(N)nc2-c2ccc(F)cc2)cc(Cl)n1; test = refers to: Hypothyroidism; system = IO-naive colorectal cancer patients; conditions = oral, dose not given, treatment-related, all grades; quantity = patients with immune-mediated AE; value = 0%
Structure (SMILES) = COc1cc2nccc(Oc3ccc(NC(=O)c4cc5c(n(-c6ccccc6)c4=O)CCCC5=O)nc3)c2cc1OC; system = patients with relapsed/refractory AML; conditions = oral, 10 mg once daily; quantity = patients with serious TEAEs; value = 85.7%
Structure (SMILES) = O=C(Nc1nc2cccc(-c3ccc(CN4CCS(=O)(=O)CC4)cc3)n2n1)C1CC1; test = refers to: anaemia; system = rheumatoid arthritis patients; conditions = oral, 150 mg once daily, 4 weeks, any relatedness; quantity = patients with adverse event; value = 0%
Structure (SMILES) = CC(C)C[C@H](NC(=O)CNC(=O)c1cc(Cl)ccc1Cl)B(O)O; test = refers to: Vomiting, all grades; system = newly diagnosed multiple myeloma patients; conditions = oral, dose not given, maintenance phase, new onset, cycle 17 or later; quantity = patients with adverse event; value = 28%

A few entries again:
Structure (SMILES) = NC(=O)N1c2ccccc2C=Cc2ccccc21; system = male patients; conditions = oral, dose not given, treatment-related adverse events; quantity = patients with Constipation; value = 20%
